Experimental data collected from several papers.
Protocols differ between the studies behind these lines. ± gives the spread as reported.

| Molecule | test | system | setting | quantity | result |
| --- | --- | --- | --- | --- | --- |
| CC(C)C[C@@H]1NC(=O)[C@@H]2CSSC[C@@H](C(=O)NCC(N)=O)NC(=O)[C@H](Cc3ccccc3)NC(=O)CNC(=O)[C@H](CC(N)=O)NC(=O)[C@@H]3CCCN3C(=O)CNC(=O)[C@@H]3CSSC[C@H](NC(=O)[C@H]([C@@H](C)O)NC(=O)[C@H](CC(C)C)NC(=O)[C@@H]4CCCN4C(=O)[C@@H]4CCCN4C(=O)[C@H](CC(N)=O)NC(=O)[C@H](CC(=O)O)NC(=O)CNC(=O)[C@H](CCCNC(=N)N)NC(=O)[C@@H]4CCCN4C(=O)[C@H](CCCNC(=N)N)NC(=O)[C@@H]4CCCN4C(=O)[C@@H](NC(=O)CNC(=O)CN4CCN(CC(=O)O)CCN(CC(=O)O)CCN(CC(=O)O)CC4)CSSC[C@H](NC(=O)CNC(=O)[C@H](C)NC1=O)C(=O)N[C@@H](C(C)C)C(=O)N3)C(=O)N[C@@H](CO)C(=O)N[C@@H](CCC(N)=O)C(=O)N[C@@H](CC(=O)O)C(=O)N[C@@H](CO)C(=O)N[C@@H](CC(=O)O)C(=O)N2 [copper-64 labelled] | PET/CT | CCSP-rtTA TetO-MYC TetO-KrasG12D mouse, healthy lung tissue | 60 min | tissue uptake | 0.3 %ID/g |
| melittin | isothermal titration calorimetry | POPC/POPG LUVs 75:25% | 100 µM, pH 7.0, 25 °C | partitioning enthalpy | -2.7 kcal/mol |
| N=C(N)NCCC[C@@H]1NC(=O)[C@H](CCCCNC(=O)CNC(=O)CNC(=O)CNC(=O)CC[C@H](NC(=O)CCOCCOCCOCCOCCNC(=O)c2ccc(NN)nc2)C(=O)NCC(=O)NCC(=O)NCC(=O)NCCCC[C@@H]2NC(=O)[C@@H](Cc3ccccc3)NC(=O)[C@H](CC(=O)O)NC(=O)CNC(=O)[C@H](CCCNC(=N)N)NC2=O)NC(=O)[C@@H](Cc2ccccc2)NC(=O)[C@H](CC(=O)O)NC(=O)CNC1=O [technetium-99m labelled] | γ-counting | female athymic nude mice, U-87 MG xenograft, liver | intravenous, 1 h | tissue uptake | 2.77 ± 0.35 %ID/g |
| CCN1C(=CC=CC=CC2=[N+](CCCCCC(=O)NCCCC[C@H](NC(=O)CN3CCN(CC(=O)O)CCN(CC(=O)O)CCN(CC(=O)O)CC3)C(=O)NCC(=O)NCC(=O)N[C@@H](Cc3ccc(O)cc3)C(=O)NCC(=O)N[C@H]3CSSC[C@@H]4NC(=O)CNC(=O)[C@H](C)NC(=O)[C@H](CC(C)C)NC(=O)[C@@H]5CSSC[C@@H](C(=O)NCC(N)=O)NC(=O)[C@H](Cc6ccccc6)NC(=O)CNC(=O)[C@H](CC(N)=O)NC(=O)[C@@H]6CCCN6C(=O)CNC(=O)[C@H](CSSC[C@H](NC(=O)[C@H](CO)NC(=O)[C@H]([C@@H](C)O)NC(=O)[C@@H]6CCCN6C(=O)[C@H](C)NC(=O)[C@H](Cc6c[nH]c7ccccc67)NC(=O)[C@H](CC(=O)O)NC(=O)CNC(=O)[C@H](CCCNC(=N)N)NC(=O)CNC(=O)[C@H](CCC(N)=O)NC(=O)[C@@H]6CCCN6C3=O)C(=O)N[C@@H](CO)C(=O)N[C@@H](CCC(N)=O)C(=O)N[C@@H](CC(=O)O)C(=O)N[C@@H](CO)C(=O)N[C@@H](CC(=O)O)C(=O)N5)NC(=O)[C@H](C(C)C)NC4=O)c3ccc4c(S(=O)(=O)[O-])cc(S(=O)(=O)O)cc4c3C2(C)C)C(C)(C)c2c1ccc1c(S(=O)(=O)O)cc(S(=O)(=O)O)cc21 (single isomer, unassigned) [copper-64 labelled] | – | nude mouse, U-87 MG xenograft, tumour | intravenous, 100 µCi, 0.5 nmol, 24 h | tissue uptake | 4.57 ± 0.7 %ID/g |
| Cc1ccccc1NC(=O)Nc1ccc(CC(=O)N[C@@H](CCCCNC(=O)/C=C/c2cccnc2)C(=O)N[C@@H](CCCC(=O)O)C(=O)NC2(C(=O)NCCOCCOCCOCCOCC(=O)N[C@@H](CCCCNC(=S)Nc3ccc(C[C@H]4CN(CC(=O)O)CCN(CC(=O)O)CCN4CC(=O)O)cc3)C(N)=O)CCCCC2)cc1 [gallium-68 labelled] | radio-HPLC | human serum | 2 h, 37 °C | 68Ga release | < 5% |
| CSCC[C@H](NC(=O)[C@H](CC(C)C)NC(=O)[C@H](Cc1c[nH]cn1)NC(=O)CNC(=O)[C@@H](NC(=O)[C@H](C)NC(=O)[C@H](Cc1c[nH]c2ccccc12)NC(=O)[C@H](CCC(N)=O)NC(=O)CCC(=O)NCCOCCOCCNC(=O)CN1CCN(CC(=O)O)CCN(CC(=O)O)CCN(CC(=O)O)CC1)C(C)C)C(N)=O | – | CF-1 mouse, urine and bladder | intravenous, 185 kBq, 1 h | excretion | 82.2 ± 1.31% |
| COc1cccc2c1C(=O)c1c(O)c3c(c(O)c1C2=O)C[C@@](O)(C(=O)CO)C[C@@H]3O[C@H]1C[C@H](NC(=O)[C@H](CC(C)C)NC(=O)[C@H](C)NC(=O)[C@H](CC(C)C)NC(=O)CCNC(=O)CCC(=O)O)[C@H](O)[C@H](C)O1 | – | mouse, E0771 tumour-bearing, heart | intravenous, 92 µmol/kg | terminal half-life | 30 min |
| CN[C@@](C)(C[18F])C(=O)O | – | SCID mouse A549 xenograft, spleen | 120 min, post injection | tissue uptake | 6.2 ± 0.4 %ID/g |
| N=C(N)NCCC[C@@H]1NC(=O)[C@H](CCCCNC(=O)[C@H](CC(=O)O)NC(=O)[C@H](CC(=O)O)NC(=O)[C@H](CC(=O)O)NC(=O)CC[C@H](NC(=O)CCOCCOCCOCCOCCNC(=O)c2ccc(NN)nc2)C(=O)N[C@@H](CC(=O)O)C(=O)N[C@@H](CC(=O)O)C(=O)N[C@@H](CC(=O)O)C(=O)NCCCC[C@@H]2NC(=O)[C@@H](Cc3ccccc3)NC(=O)[C@H](CC(=O)O)NC(=O)CNC(=O)[C@H](CCCNC(=N)N)NC2=O)NC(=O)[C@@H](Cc2ccccc2)NC(=O)[C@H](CC(=O)O)NC(=O)CNC1=O [technetium-99m labelled] | γ-counting | female athymic nude mice, U-87 MG xenograft, liver | intravenous, 0.5 h | tissue uptake | 3.95 ± 0.11 %ID/g |
| COc1cccc2c1C(=O)c1c(O)c3c(c(O)c1C2=O)C[C@@](O)(C(=O)CO)C[C@@H]3O[C@H]1C[C@H](NC(=O)[C@@H]2CCCN2C(=O)CNC(=O)[C@H](CC(C)C)NC(=O)[C@H](C)NC(=O)CP(=O)(O)O)[C@H](O)[C@H](C)O1 | – | mouse, E0771 tumour-bearing, plasma | intravenous, 92 µmol/kg | Cmax | 560 µM |

A few entries again:
| Molecule | test | system | setting | quantity | result |
| --- | --- | --- | --- | --- | --- |
| N=C(N)NCCC[C@@H]1NC(=O)[C@H](CCCCNC(=O)CNC(=O)CNC(=O)CNC(=O)CC[C@H](NC(=O)CCOCCOCCOCCOCCNC(=O)c2ccc(NN)nc2)C(=O)NCC(=O)NCC(=O)NCC(=O)NCCCC[C@@H]2NC(=O)[C@@H](Cc3ccccc3)NC(=O)[C@H](CC(=O)O)NC(=O)CNC(=O)[C@H](CCCNC(=N)N)NC2=O)NC(=O)[C@@H](Cc2ccccc2)NC(=O)[C@H](CC(=O)O)NC(=O)CNC1=O [technetium-99m labelled] | γ-counting | female athymic nude mice, U-87 MG xenograft, liver | intravenous, 1 h | tissue uptake | 2.77 ± 0.35 %ID/g |
